Assay results gathered from unrelated publications.
A part holds a random share of what one study measured. Positions count from the first letter of the parent shown.
Chain of UniProt P49841 (whole entry, looked up): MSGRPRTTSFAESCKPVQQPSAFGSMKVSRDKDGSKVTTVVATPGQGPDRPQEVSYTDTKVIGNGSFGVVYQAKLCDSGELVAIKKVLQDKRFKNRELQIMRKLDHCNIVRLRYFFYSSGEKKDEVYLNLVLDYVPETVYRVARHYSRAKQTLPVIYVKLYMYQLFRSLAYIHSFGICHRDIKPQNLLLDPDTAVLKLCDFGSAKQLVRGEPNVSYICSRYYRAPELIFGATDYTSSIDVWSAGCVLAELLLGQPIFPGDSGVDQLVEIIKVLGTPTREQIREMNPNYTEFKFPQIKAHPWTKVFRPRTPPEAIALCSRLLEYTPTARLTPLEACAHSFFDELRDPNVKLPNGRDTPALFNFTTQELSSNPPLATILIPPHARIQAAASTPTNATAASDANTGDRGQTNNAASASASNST
Chain of UniProt P11362 (whole entry, looked up): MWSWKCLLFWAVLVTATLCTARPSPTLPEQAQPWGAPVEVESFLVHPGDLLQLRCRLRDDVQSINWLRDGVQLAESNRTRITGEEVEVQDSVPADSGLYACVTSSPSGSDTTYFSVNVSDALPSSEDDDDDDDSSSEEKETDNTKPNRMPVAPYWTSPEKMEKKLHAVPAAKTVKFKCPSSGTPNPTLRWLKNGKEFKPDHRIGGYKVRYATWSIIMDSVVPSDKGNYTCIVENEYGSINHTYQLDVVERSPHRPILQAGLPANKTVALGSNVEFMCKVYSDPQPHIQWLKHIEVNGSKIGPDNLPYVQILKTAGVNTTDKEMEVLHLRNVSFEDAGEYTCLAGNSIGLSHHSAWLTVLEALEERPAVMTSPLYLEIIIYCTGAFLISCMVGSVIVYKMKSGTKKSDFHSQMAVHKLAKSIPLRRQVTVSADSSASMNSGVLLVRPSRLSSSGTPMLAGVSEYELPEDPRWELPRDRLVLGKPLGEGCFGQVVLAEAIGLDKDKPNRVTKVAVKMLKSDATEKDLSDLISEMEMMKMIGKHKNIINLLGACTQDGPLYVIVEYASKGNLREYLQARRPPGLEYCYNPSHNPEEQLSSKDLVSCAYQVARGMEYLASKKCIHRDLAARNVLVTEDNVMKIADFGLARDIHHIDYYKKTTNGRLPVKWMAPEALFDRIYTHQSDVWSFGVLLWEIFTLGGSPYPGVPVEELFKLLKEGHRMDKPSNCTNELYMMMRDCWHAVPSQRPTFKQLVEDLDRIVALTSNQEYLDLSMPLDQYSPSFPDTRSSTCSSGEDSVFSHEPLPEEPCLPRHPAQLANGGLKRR
Chain of UniProt Q9Y6M4 (whole entry, looked up): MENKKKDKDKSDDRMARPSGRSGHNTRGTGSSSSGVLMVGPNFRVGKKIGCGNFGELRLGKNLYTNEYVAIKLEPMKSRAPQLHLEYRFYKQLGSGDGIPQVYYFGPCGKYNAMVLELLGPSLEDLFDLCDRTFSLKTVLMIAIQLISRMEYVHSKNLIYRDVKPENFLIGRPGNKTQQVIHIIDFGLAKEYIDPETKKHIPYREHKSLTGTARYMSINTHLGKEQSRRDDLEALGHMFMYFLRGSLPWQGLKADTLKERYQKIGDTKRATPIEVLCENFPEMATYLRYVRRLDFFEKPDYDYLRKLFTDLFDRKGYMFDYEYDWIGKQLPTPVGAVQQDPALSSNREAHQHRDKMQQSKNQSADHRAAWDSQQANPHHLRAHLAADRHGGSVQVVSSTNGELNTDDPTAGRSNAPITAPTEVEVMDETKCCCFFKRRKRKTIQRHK
Chain of UniProt Q12866 (whole entry, looked up): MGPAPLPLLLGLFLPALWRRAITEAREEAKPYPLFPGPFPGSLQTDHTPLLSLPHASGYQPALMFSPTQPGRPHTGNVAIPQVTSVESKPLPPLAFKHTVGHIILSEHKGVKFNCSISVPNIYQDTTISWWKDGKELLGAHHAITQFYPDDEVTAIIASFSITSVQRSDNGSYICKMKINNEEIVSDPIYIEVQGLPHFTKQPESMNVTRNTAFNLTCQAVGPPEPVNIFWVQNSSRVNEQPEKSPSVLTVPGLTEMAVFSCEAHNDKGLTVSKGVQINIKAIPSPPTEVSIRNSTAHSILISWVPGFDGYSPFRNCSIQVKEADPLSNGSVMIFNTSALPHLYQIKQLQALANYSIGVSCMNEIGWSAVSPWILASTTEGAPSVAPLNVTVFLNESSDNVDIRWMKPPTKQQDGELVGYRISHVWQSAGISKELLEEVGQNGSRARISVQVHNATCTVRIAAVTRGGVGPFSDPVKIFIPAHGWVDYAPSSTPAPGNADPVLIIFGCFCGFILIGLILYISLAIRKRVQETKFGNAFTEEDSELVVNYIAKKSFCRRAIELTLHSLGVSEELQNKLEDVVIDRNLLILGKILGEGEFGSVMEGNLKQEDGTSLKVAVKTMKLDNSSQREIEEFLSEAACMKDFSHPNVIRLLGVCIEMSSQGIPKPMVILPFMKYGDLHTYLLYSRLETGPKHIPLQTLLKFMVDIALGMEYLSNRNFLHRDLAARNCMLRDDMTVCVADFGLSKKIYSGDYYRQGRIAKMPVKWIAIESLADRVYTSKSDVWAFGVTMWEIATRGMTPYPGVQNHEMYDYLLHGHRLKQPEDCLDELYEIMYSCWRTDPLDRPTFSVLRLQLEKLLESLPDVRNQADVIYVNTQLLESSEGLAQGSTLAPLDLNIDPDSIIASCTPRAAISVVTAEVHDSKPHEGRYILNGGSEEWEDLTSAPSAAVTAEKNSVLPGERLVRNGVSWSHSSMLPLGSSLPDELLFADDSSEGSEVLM
Chain of UniProt Q96PY6 (whole entry, looked up): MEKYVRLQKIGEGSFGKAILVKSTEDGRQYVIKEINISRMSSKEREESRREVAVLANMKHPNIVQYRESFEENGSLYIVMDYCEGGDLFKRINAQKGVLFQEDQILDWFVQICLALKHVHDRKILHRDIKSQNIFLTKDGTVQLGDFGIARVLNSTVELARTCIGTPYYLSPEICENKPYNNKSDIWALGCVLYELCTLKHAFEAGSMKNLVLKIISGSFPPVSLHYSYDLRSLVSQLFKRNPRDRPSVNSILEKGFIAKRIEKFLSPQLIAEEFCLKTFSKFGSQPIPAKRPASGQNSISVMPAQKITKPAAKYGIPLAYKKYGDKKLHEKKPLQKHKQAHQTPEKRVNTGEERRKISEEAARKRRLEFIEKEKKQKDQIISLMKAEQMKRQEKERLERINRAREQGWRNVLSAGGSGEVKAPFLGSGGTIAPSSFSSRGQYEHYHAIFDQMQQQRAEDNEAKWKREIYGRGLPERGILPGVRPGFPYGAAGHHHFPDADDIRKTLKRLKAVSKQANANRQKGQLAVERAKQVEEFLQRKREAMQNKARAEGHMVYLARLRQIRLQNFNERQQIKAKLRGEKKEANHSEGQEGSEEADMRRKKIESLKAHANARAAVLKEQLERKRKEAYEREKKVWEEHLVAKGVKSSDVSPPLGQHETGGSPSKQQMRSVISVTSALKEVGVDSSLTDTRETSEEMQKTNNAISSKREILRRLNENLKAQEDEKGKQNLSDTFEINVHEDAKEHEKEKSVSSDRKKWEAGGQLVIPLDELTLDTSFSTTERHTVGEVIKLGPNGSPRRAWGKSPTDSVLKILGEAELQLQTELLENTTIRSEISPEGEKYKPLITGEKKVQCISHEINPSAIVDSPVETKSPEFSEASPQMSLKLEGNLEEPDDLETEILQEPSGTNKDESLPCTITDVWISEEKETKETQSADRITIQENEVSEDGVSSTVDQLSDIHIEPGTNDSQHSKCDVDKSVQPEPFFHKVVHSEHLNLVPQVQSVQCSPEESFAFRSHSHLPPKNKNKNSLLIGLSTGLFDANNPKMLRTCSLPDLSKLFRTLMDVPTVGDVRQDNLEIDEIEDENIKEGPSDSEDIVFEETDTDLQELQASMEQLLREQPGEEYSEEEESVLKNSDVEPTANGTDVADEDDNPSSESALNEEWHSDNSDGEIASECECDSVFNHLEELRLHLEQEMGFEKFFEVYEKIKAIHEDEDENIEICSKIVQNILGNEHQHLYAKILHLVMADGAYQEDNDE
Chain of UniProt P49137 (whole entry, looked up): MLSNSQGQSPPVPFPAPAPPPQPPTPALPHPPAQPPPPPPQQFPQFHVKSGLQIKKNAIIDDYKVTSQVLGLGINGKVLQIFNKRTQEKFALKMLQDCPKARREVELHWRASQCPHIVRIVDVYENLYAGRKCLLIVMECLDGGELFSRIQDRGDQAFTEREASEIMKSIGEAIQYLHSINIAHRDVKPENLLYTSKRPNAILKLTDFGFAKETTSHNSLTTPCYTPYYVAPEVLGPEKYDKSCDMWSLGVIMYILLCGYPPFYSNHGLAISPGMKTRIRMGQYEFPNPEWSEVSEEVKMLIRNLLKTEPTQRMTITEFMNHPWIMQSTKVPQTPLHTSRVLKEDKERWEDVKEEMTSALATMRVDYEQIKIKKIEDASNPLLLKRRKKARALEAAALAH
Chain of UniProt P78368 (whole entry, looked up): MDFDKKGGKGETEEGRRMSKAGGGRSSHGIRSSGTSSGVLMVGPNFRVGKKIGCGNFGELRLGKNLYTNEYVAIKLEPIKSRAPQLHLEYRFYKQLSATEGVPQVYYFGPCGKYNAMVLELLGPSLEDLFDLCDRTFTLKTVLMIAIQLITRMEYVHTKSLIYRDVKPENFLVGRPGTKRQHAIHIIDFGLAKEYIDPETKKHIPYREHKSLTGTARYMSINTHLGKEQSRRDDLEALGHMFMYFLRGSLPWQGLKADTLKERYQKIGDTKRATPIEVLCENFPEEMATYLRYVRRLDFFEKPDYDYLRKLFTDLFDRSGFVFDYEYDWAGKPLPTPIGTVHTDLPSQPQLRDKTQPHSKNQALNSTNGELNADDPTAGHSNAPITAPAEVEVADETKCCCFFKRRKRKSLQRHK

Block 1
Target: Translocator protein (Tspo, Rattus norvegicus, UniProt P16257)
Chain of UniProt P16257 (whole entry, looked up): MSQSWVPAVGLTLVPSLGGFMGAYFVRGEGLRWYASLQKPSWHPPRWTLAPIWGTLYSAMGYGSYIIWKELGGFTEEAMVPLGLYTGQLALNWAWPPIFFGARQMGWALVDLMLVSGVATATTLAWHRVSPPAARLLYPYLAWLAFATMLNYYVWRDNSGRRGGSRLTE
Read-out: radioligand binding
Technique: radioligand displacement
Tested at: 10 µM
Quantity: inhibition
CC(=O)C1=C(C)N(c2cccc(C(F)(F)F)c2)C(=O)N[C@@H]1c1ccc(C#N)nc1: 20%
Cn1nc(C(=O)NCc2ccc(C(=O)O)cc2)cc1-c1ccc2[nH]ccc2c1: 6.39%
CCNC(=O)c1cc2c(N3CCOC[C@@H]3C)ccnc2[nH]1: 30.1%
CC1=C(C#N)C(c2ccc3[nH]nc(C)c3c2)C(C#N)=C(C)N1: -12.3%

Block 2
Target: Interferon regulatory factor 5, full length, phosphomimetic (IRF5, Homo sapiens, UniProt Q13568-2, residues 1-514, K96S/S451D/S453D/S456D/S462D)
Technique: protein-binding microarray
Molecule type: double-stranded DNA, one strand shown
Sample: in vitro
Tested at: 250 nM
Notes: 60-bp whole probe
With: salmon DNA 0.4 mg/ml
Baseline: random background probes
Reading: higher = stronger binding
Quantity: log fluorescence
Shared flanks, not repeated: GCCTAGCAC … GTCTTGATTCGCTTGACGCTGCTG
TTAGAACTGAGTTTAGATTAGTGCTAG: -0.13 z-score
TTAGATATCAGAATCGATTAGTGCTAG: 1.34 z-score
TCAGTTGTAGGTTTTCTGACTGTGCTA: 0.273 z-score
TACGATTTCAGTCTCGAGACGTGCTAG: 1.62 z-score
TTAGGACTGGGGTTCGGTTAGTGCTAG: -0.487 z-score
TACGGTCTCGGTCTCGGGACGTGCTAG: 0.243 z-score
GACGTTATCGGGACTGGGGACGTGCTA: 1.04 z-score
TTAGGTTTCCTTTCCCTTTAGTGCTAG: 1.96 z-score

Block 3
Target: CEBPD, bZIP domain (human)
Technique: DHFR protein complementation
Sample: yeast
Notes: single substitutions, most at no-binding floor
Baseline: wild-type JUN-FOS pair
Reading: higher = stronger binding
Quantity: binding fitness
Parent: JUN, bZIP domain (human); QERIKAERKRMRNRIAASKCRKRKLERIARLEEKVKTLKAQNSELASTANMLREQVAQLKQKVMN; partner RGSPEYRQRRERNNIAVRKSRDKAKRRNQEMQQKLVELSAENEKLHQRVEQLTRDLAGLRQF
A40G: -1.45 natural log
E44S: -1.38 natural log
A49F: -1.45 natural log
I28H: -1.27 natural log
R30Q: -1.34 natural log
V56F: -1.33 natural log
A49R: -1.33 natural log
A40N: -1.45 natural log

Block 4
SMILES: CCc1[nH]c(-c2ccc(OC)cc2)nc1-c1ccncc1
Read-out: enzyme activity
Action: inhibitor
Tested at: 0.5 µM
Baseline: control
Quantity: remaining activity
Serine/threonine-protein kinase Nek1 (NEK1, Homo sapiens, UniProt Q96PY6): 98.9%
Fibroblast growth factor receptor 1 (FGFR1, Homo sapiens, UniProt P11362): 88.1%
Casein kinase I isoform gamma-3 (CSNK1G3, Homo sapiens, UniProt Q9Y6M4): 106%
Tyrosine-protein kinase Mer (MERTK, Homo sapiens, UniProt Q12866): 92.1%
MAP kinase-activated protein kinase 2 (MAPKAPK2, Homo sapiens, UniProt P49137): 100%
Serine/threonine-protein kinase A-Raf (ARAF, Homo sapiens, UniProt P10398): 99.6%
Casein kinase I isoform gamma-2 (CSNK1G2, Homo sapiens, UniProt P78368): 97.7%
Dual specificity mitogen-activated protein kinase kinase 2 (MAP2K2, Homo sapiens, UniProt P36507): 105%
Rhodopsin kinase GRK7 (GRK7, Homo sapiens, UniProt Q8WTQ7): 101%
Tyrosine-protein kinase ABL2 (ABL2, Homo sapiens, UniProt P42684): 98.3%
Glycogen synthase kinase-3 beta (GSK3B, Homo sapiens, UniProt P49841): 108%
Serine/threonine-protein kinase ULK2 (ULK2, Homo sapiens, UniProt Q8IYT8): 98%
Mitogen-activated protein kinase kinase kinase 14 (MAP3K14, Homo sapiens, UniProt Q99558): 118%

Excerpt of the above (block 2):
TCAGTTGTAGGTTTTCTGACTGTGCTA: 0.273 z-score
TTAGATATCAGAATCGATTAGTGCTAG: 1.34 z-score
TACGGTCTCGGTCTCGGGACGTGCTAG: 0.243 z-score
TTAGAACTGAGTTTAGATTAGTGCTAG: -0.13 z-score
TACGATTTCAGTCTCGAGACGTGCTAG: 1.62 z-score
